Measurements of several laboratories.
Protocols differ between the studies behind these lines. ± gives the spread as reported.

SMILES	assay	system	conditions	how to read	endpoint	result
CN1CC[C@@H](c2c(O)cc(O)c3c(=O)cc(-c4ccc(C(F)(F)F)cc4Cl)oc23)[C@@H]1CO	item: Hypotension	AML	oral, 200 mg, intermittent dosing	–	patients with adverse event	10%
[O-][S+]1CCc2nc(N3CCC(c4ncc(Cl)cn4)CC3)nc(NC3(CO)CCC3)c21 (centres unmarked)	item: mean	idiopathic pulmonary fibrosis patients, urine	18 mg twice daily, at last treatment	–	urine pH	5.6
C=CC(=O)N1CC[C@H](n2nc(C#Cc3cc(OC)cc(OC)c3)c3c(N)ncnc32)C1	–	human patients	oral, dose not given, QD regimen, adverse drug reaction, added: lanthanum carbonate hydrate	–	decreased appetite, any grade	54.2%
COc1cccc2c1CCCC2CCCN1CCN(C2CCCCC2)CC1 (centres unmarked)	–	CD-1 mouse, male, plasma	intraperitoneal, 30 mg/kg	–	half-life	3.18 h
CN1CCN(S(=O)(=O)c2cc([N+](=O)[O-])ccc2N(CCOS(C)(=O)=O)CCOS(C)(=O)=O)CC1	–	naive NOD/SCID mice, pooled blood	intraperitoneal, 12.5 mg/kg, week 4	–	glucose	4.1 mmol/L
COc1cc2c(Oc3ccc4[nH]c(C)cc4c3F)ccnc2cc1OCC1(N)CC1	–	paediatric recurrent refractory sarcoma	10 mg	–	grade 1 or 2 abdominal pain	50%
CC[C@H](C)[C@H](NC(=O)[C@H](Cc1ccccc1)NC(=O)[C@H](CCC(=O)O)NC(=O)[C@H](CCCCNC(=O)COCCOCCNC(=O)COCCOCCNC(=O)CC[C@H](NC(=O)CCCCCCCCCCCCCCCCC(=O)O)C(=O)O)NC(=O)[C@H](C)NC(=O)[C@H](C)NC(=O)[C@H](CCC(N)=O)NC(=O)CNC(=O)[C@H](CCC(=O)O)NC(=O)[C@H](CC(C)C)NC(=O)[C@H](Cc1ccc(O)cc1)NC(=O)[C@H](CO)NC(=O)[C@H](CO)NC(=O)[C@@H](NC(=O)[C@H](CC(=O)O)NC(=O)[C@H](CO)NC(=O)[C@@H](NC(=O)[C@H](Cc1ccccc1)NC(=O)[C@@H](NC(=O)CNC(=O)[C@H](CCC(=O)O)NC(=O)C(C)(C)NC(=O)[C@@H](N)Cc1cnc[nH]1)[C@@H](C)O)[C@@H](C)O)C(C)C)C(=O)N[C@@H](C)C(=O)N[C@@H](Cc1c[nH]c2ccccc12)C(=O)N[C@@H](CC(C)C)C(=O)N[C@H](C(=O)N[C@@H](CCCNC(=N)N)C(=O)NCC(=O)N[C@@H](CCCNC(=N)N)C(=O)NCC(=O)O)C(C)C	–	healthy men and women	oral, 14 mg once daily, with SNAC, geometric mean	–	Cmax at steady state	28.4 nM
CCS(=O)(=O)Nc1ccc(Oc2ccc(F)cc2F)c(-c2cn(C)c(=O)c3[nH]ccc23)c1	fatal pneumonia sepsis	human, relapsed/refractory AML	oral, dose not given	–	treatment-emergent adverse events	0%
CCc1ccc(CC/C=C/c2ccc3c(c2)C(=O)CC3)cc1	–	Sprague-Dawley rat, male	oral, 120 mg/kg/day, 14 days	–	Neutrophil percentage	14.7%
CC(=O)c1c(C)c2cnc(Nc3ccc(C4CCN(CCS(C)(=O)=O)CC4)cn3)nc2n(C2CCCC2)c1=O	–	human patients, plasma	oral, 100 mg twice daily, day 21 multiple doses, added: fulvestrant	–	AUC(0-inf)	1550 ng·h/mL
CC(C)C[C@H](NC(=O)[C@H](CCC1CCCCC1)NC(=O)[C@@H]1CCCN1C(=O)c1ccc(F)cc1)C(=O)NC(C)(C)C(=O)N[C@@H](CC(C)C)C(=O)N[C@@H](CC(C)C)C(=O)NC(C)(C)C(=O)NC(C)(C)C(=O)NCCC(=O)NC1(CN(C)C)CCC1	–	Sprague-Dawley rat female	7 days, dose escalation	–	tolerated dose	300 mg/kg
CC(C)C[C@H](NC(=O)[C@@H](NC(=O)[C@H](CCCNC(=N)N)NC(=O)[C@H](CCC(N)=O)NC(=O)[C@H](Cc1ccccc1)NC(=O)[C@H](Cc1ccc(O)cc1)NC(=O)[C@H](CC(N)=O)NC(=O)[C@H](Cc1c[nH]c2ccccc12)NC(=O)[C@@H](NC(=O)[C@H](CCCNC(=N)N)NC(=O)[C@H](CCCCN)NC(=O)[C@@H](N)Cc1ccccc1)C(C)C)C(C)C)C(=O)N[C@H](C(=O)N[C@@H](CCCCN)C(=O)N[C@@H](CCCCN)C(=O)N[C@@H](Cc1ccc(O)cc1)C(=O)N[C@@H](C)C(N)=O)C(C)C	reversed-phase UPLC	C18 column, TFA	–	–	elution acetonitrile content	45.1%
CC(C)Nc1ccnc(Nc2cccc(-c3cccnc3)c2)n1	item: Calcium	mouse, blood	intraperitoneal, 5 mg/kg	–	blood chemistry	10.1 mg/dL
CC(C)(O/N=C(\C(=O)N[C@@H]1C(=O)N2C(C(=O)[O-])=C(C[n+]3ccccc3)CS[C@H]12)c1csc(N)n1)C(=O)O	population PK model, bootstrap	human, plasma	intravenous, dose not given, bootstrap median	–	central volume of distribution	8.2 L
C[C@@H](NC(=O)N1C(=O)[C@H](Cc2ccnc(N)c2)[C@H]1C(=O)O)C1CCCCC1	–	healthy adult Chinese volunteers	continuous intravenous infusion, 0.6 mg/kg/h, 5-day infusion, CTCAE 5.0 grading	–	drug-related decreased neutrophil	0%
CC(C)(c1ccccc1)c1cc(-n2nc3ccccc3n2)c(O)c(C(C)(C)c2ccccc2)c1	exposure assessment	human, age 1-2 years	sunscreen	–	mean daily dermal uptake	0.77 ng/kg body weight/day
C=C(C)[C@@H]1CCC(C)=C[C@H]1c1c(O)cc(CCCCC)cc1O	–	human	750 mg, trial 17074, added: rifampicin 600 mg	–	serious AEs	0%
O[C@H]1CCCN[C@@H]1CCCn1cnc2c(Cl)c(Cl)ccc21	–	human, UGT2B7 NN phenotype, plasma	oral, 150 mg twice daily, steady state	–	AUCtau	1360 ng·h/mL
O=C(Nc1ccccc1)C1CCN(C(=O)Oc2cccnc2)CC1	adverse event reporting	healthy women	oral, 20 mg, 7 days	–	subjects with Dysmenorrhoea adverse event	14.3%

SMILES	assay	system	conditions	how to read	endpoint	result
CCCCCOc1ccc(-c2ccc(-c3ccc(C(=O)N[C@H]4C[C@@H](O)[C@@H](OCC[N+](C)(C)C)NC(=O)[C@@H]5[C@@H](O)[C@@H](C)CN5C(=O)[C@H]([C@@H](C)O)NC(=O)[C@H]([C@H](O)[C@@H](O)c5ccc(O)cc5)NC(=O)[C@@H]5C[C@@H](O)CN5C(=O)[C@H]([C@@H](C)O)NC4=O)cc3)cc2)cc1	–	adult patients not in ICU, plasma	intravenous, 400 mg loading dose, after first dose, geometric mean	–	Cmax	17600 ng/mL
CC[C@H](C)CCCCC(=O)N[C@@H](CCN)C(=O)N[C@H](C(=O)N[C@@H](CCN)C(=O)N[C@H]1CCNC(=O)[C@H]([C@@H](C)O)NC(=O)[C@H](CCN)NC(=O)[C@H](CCN)NC(=O)[C@H](CC(C)C)NC(=O)[C@@H](Cc2ccccc2)NC(=O)[C@H](CCN)NC1=O)[C@@H](C)O	–	human, critically ill, AKI, plasma	intravenous, dose not given, mean	–	clearance	1.17 L/h
C=CCNc1c(O)cc2c(O)c1C[C@@H](C)C[C@H](OC)[C@H](O)[C@@H](C)/C=C(\C)[C@H](OC(N)=O)[C@@H](OC)/C=C\C=C(/C)C(=O)N2	–	unresectable or metastatic STS, GIST, other	intravenous, 225 mg/m^2	–	patients with diarrhoea TEAE	33%
Clc1ccc(Cl)c(-c2cc(Cl)ccc2Cl)c1	–	Sprague Dawley rat, liver	intraperitoneal, 100 mg/kg	–	organ weight	7.22 g
C[C@@H]1OC(=O)NN=C1c1ccc(-c2ccc(F)cc2)c(C(F)(F)F)c1	phase I trial, item: Fatigue all grades	human patients	10 mg loading then 0.5 mg daily	–	patients with adverse event	100%
CO[C@H]1C[C@@H]2CC[C@@H](C)[C@@](O)(O2)C(=O)C(=O)N2CCCC[C@H]2C(=O)O[C@H]([C@H](C)C[C@@H]2CC[C@@H](OC(=O)NCCOCCOCCOCCOCCOCCOCCOCCOCCC(=O)N3CCc4cc(Cn5nc(-c6ccc7oc(N)nc7c6)c6c(N)ncnc65)ccc4C3)[C@H](OC)C2)C[C@@H](O)[C@H](C)/C=C(\C)[C@@H](O)[C@@H](OC)C(=O)[C@H](C)C[C@H](C)/C=C/C=C/C=C/1C	–	patients with advanced solid tumours	intravenous, 12 mg weekly, any grade	–	vomiting incidence	41.7%
CCCC[C@@H]1NC(=O)[C@H](Cc2ccc(O)cc2)NC(=O)[C@@H]2CCCN2C(=O)[C@H](CC(=O)O)NC(=O)[C@H](C)NC(=O)[C@H](Cc2ccccc2)NC(=O)[C@@H]2CSCCC(=O)N3CN(CN(C3)C(=O)CCSC[C@@H](C(=O)N[C@@H](C)C(N)=O)NC1=O)C(=O)CCSC[C@H](NC(=O)[C@H](C)NC(C)=O)C(=O)N[C@@H]([C@@H](C)CC)C(=O)N[C@@H](CCC(=O)O)C(=O)N[C@@H](CCC(=O)O)C(=O)N[C@H](CCCCNC(=O)CCc1cn(CCOCCOCCOCCN(CCOCCOCCOCCC(=O)N[C@H]3CSCCC(=O)N4CN5CN(C4)C(=O)CCSC[C@H](NC(=O)[C@@H](CC(=O)O)NC(=O)[C@H](Cc4cccc6ccccc46)NC(=O)[C@@H]4CCCN4C3=O)C(=O)N[C@@H](CCSC)C(=O)N[C@@H](CCCCNC(=N)N)C(=O)N[C@@H](CC(=O)O)C(=O)N[C@@H](Cc3c[nH]c4ccccc34)C(=O)N[C@@H](CO)C(=O)N[C@@H]([C@@H](C)O)C(=O)N3CCC[C@H]3C(=O)N3C[C@H](O)C[C@H]3C(=O)N[C@@H](Cc3c[nH]c4ccccc34)C(=O)N[C@H](C(N)=O)CSCCC5=O)CCOCCOCCOCCn3cc(CCC(=O)NCCCC[C@H]4NC(=O)[C@H](CCC(=O)O)NC(=O)[C@H](CCC(=O)O)NC(=O)[C@H]([C@@H](C)CC)NC(=O)[C@@H](NC(=O)[C@H](C)NC(C)=O)CSCCC(=O)N5CN6CN(C5)C(=O)CCSC[C@H](NC(=O)[C@H](Cc5ccc(O)cc5)NC(=O)[C@H](CCC(N)=O)NC4=O)C(=O)N[C@@H](Cc4ccccc4)C(=O)N[C@@H](C)C(=O)N[C@@H](CC(=O)O)C(=O)N4CCC[C@H]4C(=O)N[C@@H](Cc4ccc(O)cc4)C(=O)N[C@@H](CCCC)C(=O)N[C@H](C(=O)N[C@@H](C)C(N)=O)CSCCC6=O)nn3)nn1)C(=O)N[C@@H](CCC(N)=O)C(=O)N[C@@H](Cc1ccc(O)cc1)C(=O)N2	–	Sprague-Dawley rat	–	–	unbound Vdss	3 L/kg
Cn1cncc1-c1c(F)cncc1NC(=O)c1c(N)nn2cc(F)cnc12	–	human patients	oral, 130 mg once daily	–	grade ≥3 lymphocyte decrease incidence	22%
Oc1c(Cl)cc2c(c1Cl)Oc1cc(Cl)c(Cl)cc1O2	–	cow whole milk	500 nM	relative to: milk fat over skim milk	milk fat partition ratio	24.2
C=CC(=O)Nc1cc(Nc2nccc(Nc3cc(Cl)c(F)cc3C(C)(C)O)n2)c(OC)cc1N1CC[C@@H](N(C)C)C1	–	human	oral, dose not given	–	aspartate aminotransferase increased TEAE	11.8%
CNC(=O)c1cc(Oc2ccc(NC(=O)Nc3cc(C(C)(C)C)nn3-c3ccc4ncccc4c3)c(F)c2)ccn1	viral cardiomyopathy, NCI CTC v3.0	human patients	oral, all dose levels	–	related SAE	2%
Cn1c(-c2ccc(C(N)=O)cc2F)nnc1C(C)(C)Oc1c(F)cc(Cl)cc1F	–	human	oral, 1 mg, single ascending dose	–	musculoskeletal disorder TEAE	0%
N#Cc1ccc(N2CCN(Cc3ccc(COc4cccc5c4CN([C@H]4CCC(=O)NC4=O)C5=O)cc3)CC2)c(F)c1	population PK model	human	oral, BLQ concentrations excluded	–	clearance	34.9 L/h
COc1ccc(-c2c(-c3ccc(C#N)c(F)c3)nc(N3CCC(N)CC3)n(C)c2=O)cc1F	item: upper respiratory tract infection	human patients	oral, 60 mg, dose expansion	–	serious TEAE incidence	5%
COc1ncccc1-c1cnn2ccc(N3CCN(C(=O)OC(C)C)CC3)nc12	–	rat rotarod, plasma	60 mg/kg, 180 min	–	free concentration	75 nM
NC(=O)[C@H]1CCN(c2ncnc(N)c2F)C[C@@H]1N1CCC[C@@H](Nc2cc(Cl)cc(C(F)(F)F)c2)C1=O	–	B-cell malignancy patients	oral, 410 mg twice daily, dose	–	grade ≥3 hypocalcaemia	0%
CC(C)C[C@H](NC(=O)[C@H](CCCCN)NC(=O)OCC1c2ccccc2-c2ccccc21)C(=O)N[C@H](C(=O)N[C@@H](Cc1ccccc1)C(=O)N[C@@H](Cc1ccccc1)C(=O)N[C@@H](CCCCN)C(=O)NCC(=O)N[C@@H](Cc1ccccc1)C(=O)N[C@@H](C)C(=O)N[C@@H](Cc1c[nH]c2ccccc12)C(=O)N[C@@H](CC(N)=O)C(=O)N[C@H](C(=O)N[C@H]1CSSC[C@@H](C(=O)N[C@@H](Cc2c[nH]cn2)C(=O)N[C@@H](CCCNC(=N)N)C(=O)N[C@@H](CCCNC(=N)N)C(=O)N[C@@H](C)C(=O)N[C@@H](CC(N)=O)C(N)=O)NC(=O)[C@H](C(C)C)NC(=O)[C@H](CCCNC(=N)N)NC(=O)[C@H](C(C)C)NC(=O)CNC(=O)[C@H](CC(N)=O)NC(=O)[C@H](CCCNC(=N)N)NC(=O)[C@H](Cc2ccc(O)cc2)NC(=O)[C@H](C(C)C)NC1=O)C(C)C)C(C)C	circular dichroism, item: β-Turn	PBS	80 µM, pH 7.4	–	secondary structure content	19%
O=C(O)CCCOc1ccc(F)cc1-c1cc(-c2ccccc2C(F)(F)F)n(-c2ccccc2)n1	–	Crl:CD(SD) rat, female, serum	intravenous, 25 µg/kg, 14 days post-dose	–	total protein	5.9 ± 0.39 g/dL
C[C@]1(CO)Cc2ncn(-c3ccc(C#N)c(Cl)c3)c2C(=O)O1	–	human, plasma	40 mg single dose, geometric mean	–	Cmax	1370 nM

Some of these lines once more:
SMILES	assay	system	conditions	how to read	endpoint	result
N#Cc1ccc(N2CCN(Cc3ccc(COc4cccc5c4CN([C@H]4CCC(=O)NC4=O)C5=O)cc3)CC2)c(F)c1	population PK model	human	oral, BLQ concentrations excluded	–	clearance	34.9 L/h
NC(=O)[C@H]1CCN(c2ncnc(N)c2F)C[C@@H]1N1CCC[C@@H](Nc2cc(Cl)cc(C(F)(F)F)c2)C1=O	–	B-cell malignancy patients	oral, 410 mg twice daily, dose	–	grade ≥3 hypocalcaemia	0%
CN1CC[C@@H](c2c(O)cc(O)c3c(=O)cc(-c4ccc(C(F)(F)F)cc4Cl)oc23)[C@@H]1CO	item: Hypotension	AML	oral, 200 mg, intermittent dosing	–	patients with adverse event	10%
